Measurements from different studies.
Parts stem from different laboratories: compare values within a part only. Several values in a cell are separate wells, animals, samples, runs or records.
UniProt P00519, sequence (whole entry, unmodified, looked up): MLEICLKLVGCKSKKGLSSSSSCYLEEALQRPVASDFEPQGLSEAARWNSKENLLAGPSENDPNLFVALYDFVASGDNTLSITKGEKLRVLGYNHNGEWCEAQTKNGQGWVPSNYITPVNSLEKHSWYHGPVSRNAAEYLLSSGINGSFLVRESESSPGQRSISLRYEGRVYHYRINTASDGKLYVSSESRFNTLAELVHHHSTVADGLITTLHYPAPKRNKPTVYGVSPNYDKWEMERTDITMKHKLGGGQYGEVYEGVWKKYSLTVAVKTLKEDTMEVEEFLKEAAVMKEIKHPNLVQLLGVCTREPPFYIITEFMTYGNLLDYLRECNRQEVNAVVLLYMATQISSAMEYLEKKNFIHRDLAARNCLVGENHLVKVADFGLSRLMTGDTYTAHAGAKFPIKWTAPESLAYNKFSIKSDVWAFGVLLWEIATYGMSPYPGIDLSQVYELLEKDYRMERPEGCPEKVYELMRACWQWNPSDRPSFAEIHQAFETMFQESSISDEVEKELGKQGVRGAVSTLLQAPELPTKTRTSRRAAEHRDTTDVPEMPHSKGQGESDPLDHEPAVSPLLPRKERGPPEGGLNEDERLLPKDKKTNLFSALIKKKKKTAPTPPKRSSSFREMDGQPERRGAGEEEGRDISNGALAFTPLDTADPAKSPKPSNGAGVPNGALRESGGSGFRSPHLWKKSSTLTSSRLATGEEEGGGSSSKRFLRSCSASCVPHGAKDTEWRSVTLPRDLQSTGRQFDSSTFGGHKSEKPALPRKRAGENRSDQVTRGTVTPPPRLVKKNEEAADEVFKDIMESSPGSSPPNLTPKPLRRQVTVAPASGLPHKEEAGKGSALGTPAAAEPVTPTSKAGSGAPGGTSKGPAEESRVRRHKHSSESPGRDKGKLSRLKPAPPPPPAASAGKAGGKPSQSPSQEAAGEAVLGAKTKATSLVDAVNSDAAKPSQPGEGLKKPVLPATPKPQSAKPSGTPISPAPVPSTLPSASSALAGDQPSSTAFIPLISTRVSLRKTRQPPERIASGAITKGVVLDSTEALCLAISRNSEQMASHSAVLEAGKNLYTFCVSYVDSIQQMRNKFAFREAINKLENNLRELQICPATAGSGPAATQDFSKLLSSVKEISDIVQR
UniProt P31749, sequence (whole entry, looked up): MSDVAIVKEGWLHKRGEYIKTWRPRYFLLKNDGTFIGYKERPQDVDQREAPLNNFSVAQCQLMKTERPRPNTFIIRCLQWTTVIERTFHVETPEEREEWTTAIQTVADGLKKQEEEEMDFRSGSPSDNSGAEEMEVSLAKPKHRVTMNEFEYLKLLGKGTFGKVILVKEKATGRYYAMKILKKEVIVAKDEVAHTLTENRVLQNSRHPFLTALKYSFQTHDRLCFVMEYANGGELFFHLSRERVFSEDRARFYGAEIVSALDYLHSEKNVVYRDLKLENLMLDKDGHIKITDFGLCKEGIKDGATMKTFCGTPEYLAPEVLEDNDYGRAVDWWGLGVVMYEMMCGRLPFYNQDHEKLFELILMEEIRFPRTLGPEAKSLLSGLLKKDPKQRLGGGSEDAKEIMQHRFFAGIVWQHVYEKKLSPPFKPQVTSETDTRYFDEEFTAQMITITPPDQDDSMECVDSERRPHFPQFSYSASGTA
UniProt Q92630, sequence (whole entry, looked up): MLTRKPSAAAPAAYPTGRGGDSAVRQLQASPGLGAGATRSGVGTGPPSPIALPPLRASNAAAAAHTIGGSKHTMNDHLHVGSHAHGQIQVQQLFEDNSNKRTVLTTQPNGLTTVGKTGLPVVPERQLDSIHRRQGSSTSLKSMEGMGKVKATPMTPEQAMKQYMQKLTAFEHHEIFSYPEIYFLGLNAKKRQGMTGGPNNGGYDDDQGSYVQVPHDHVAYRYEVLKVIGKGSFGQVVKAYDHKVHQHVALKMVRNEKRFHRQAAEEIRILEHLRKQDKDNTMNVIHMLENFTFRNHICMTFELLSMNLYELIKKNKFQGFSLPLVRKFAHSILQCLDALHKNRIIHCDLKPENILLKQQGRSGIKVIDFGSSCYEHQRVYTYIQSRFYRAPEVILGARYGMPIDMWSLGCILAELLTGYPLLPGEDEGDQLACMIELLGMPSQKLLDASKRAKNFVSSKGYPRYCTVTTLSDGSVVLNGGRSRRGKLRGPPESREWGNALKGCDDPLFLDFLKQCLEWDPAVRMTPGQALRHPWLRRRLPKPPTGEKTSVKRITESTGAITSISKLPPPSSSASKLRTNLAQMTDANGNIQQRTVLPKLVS
UniProt Q9P1W9, sequence (whole entry, looked up): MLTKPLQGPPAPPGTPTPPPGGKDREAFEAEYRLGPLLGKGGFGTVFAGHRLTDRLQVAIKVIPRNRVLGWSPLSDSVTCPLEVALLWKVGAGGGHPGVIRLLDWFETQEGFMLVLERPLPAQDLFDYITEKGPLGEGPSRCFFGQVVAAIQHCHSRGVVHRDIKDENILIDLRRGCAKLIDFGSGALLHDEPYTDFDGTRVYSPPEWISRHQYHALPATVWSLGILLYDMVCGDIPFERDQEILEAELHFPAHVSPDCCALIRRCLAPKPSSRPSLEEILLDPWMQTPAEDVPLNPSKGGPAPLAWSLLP
UniProt Q2M2I8, sequence (whole entry, looked up): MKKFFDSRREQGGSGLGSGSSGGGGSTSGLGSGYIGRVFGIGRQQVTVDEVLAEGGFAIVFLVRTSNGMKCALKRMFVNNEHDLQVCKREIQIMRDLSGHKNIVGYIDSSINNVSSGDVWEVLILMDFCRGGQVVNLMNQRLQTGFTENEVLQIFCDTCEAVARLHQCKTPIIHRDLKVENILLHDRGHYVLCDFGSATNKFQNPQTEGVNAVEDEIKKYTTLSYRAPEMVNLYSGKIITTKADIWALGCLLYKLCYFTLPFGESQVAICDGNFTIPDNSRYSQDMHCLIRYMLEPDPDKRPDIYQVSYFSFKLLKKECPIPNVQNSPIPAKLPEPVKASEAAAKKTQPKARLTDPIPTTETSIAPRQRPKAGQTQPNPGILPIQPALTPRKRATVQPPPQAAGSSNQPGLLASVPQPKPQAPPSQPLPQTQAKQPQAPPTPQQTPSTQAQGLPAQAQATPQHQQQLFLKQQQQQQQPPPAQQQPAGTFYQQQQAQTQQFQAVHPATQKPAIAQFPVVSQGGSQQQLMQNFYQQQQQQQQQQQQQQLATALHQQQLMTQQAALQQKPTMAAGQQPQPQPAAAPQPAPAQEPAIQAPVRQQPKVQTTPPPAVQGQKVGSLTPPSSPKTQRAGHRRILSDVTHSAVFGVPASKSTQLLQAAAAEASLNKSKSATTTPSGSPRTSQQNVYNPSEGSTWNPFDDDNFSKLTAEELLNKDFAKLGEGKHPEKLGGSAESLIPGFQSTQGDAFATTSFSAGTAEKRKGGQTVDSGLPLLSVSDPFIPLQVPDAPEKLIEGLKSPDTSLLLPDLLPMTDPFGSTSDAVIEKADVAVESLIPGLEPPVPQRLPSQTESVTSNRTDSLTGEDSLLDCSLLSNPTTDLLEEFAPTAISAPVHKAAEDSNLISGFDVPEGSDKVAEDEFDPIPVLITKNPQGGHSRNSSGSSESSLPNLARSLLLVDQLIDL
UniProt Q9Y4K4, sequence (whole entry, looked up): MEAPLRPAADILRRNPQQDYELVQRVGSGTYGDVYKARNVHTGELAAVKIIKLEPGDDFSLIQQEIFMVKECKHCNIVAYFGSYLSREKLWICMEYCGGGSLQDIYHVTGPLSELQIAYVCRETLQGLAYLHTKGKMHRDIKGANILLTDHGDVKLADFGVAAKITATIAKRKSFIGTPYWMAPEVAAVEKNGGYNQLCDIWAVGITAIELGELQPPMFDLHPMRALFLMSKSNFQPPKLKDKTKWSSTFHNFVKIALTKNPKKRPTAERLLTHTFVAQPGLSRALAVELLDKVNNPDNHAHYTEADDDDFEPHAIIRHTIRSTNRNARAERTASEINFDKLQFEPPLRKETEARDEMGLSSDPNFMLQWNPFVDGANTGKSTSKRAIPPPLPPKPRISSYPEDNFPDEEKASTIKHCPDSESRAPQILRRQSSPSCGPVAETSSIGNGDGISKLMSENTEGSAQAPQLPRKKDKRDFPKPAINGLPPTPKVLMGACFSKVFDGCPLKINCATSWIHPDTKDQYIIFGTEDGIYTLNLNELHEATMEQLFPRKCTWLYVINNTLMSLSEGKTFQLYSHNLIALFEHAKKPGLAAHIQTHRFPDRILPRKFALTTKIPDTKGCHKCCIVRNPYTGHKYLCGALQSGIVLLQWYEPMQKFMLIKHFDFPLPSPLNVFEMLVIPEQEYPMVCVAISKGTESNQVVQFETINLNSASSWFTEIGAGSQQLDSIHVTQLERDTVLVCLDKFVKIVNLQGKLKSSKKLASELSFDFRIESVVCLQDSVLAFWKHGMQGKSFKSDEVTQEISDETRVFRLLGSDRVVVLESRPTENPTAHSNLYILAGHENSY

Series 1
Target: Aurora kinase B (AURKB, Homo sapiens, UniProt Q96GD4)
UniProt Q96GD4, sequence (whole entry, looked up): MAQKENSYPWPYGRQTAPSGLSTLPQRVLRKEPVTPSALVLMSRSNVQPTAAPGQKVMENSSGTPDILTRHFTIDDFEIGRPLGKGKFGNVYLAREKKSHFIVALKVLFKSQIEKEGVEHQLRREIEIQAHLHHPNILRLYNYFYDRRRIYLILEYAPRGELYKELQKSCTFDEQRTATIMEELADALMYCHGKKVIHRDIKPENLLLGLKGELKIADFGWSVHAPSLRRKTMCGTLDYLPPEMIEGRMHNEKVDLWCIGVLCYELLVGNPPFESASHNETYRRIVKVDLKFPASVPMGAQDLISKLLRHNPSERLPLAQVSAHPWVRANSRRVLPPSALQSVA
Effect on: enzyme activity
Mode: inhibitor
Concentration: 0.5 µM
Reference: control
SMILES | remaining activity [%]
CC(C)(C)c1nc2c3cc[nH]c(=O)c3c3cc(F)ccc3c2[nH]1 | 11.2
O=c1c(-c2ccc(F)cc2)c(-c2ccncc2)[nH]n1-c1ccc(Cl)cc1 | 95.1
CC(C)n1cnc2c(Nc3cccc(Cl)c3)nc(NCCO)nc21 | 106
c1cc(-c2cnn3cc(-c4ccc(OCCN5CCCCC5)cc4)cnc23)ccn1 | 55
CNc1cc2c(Nc3cccc(Br)c3)ncnc2cn1 | 76.3
CC(C)N(CCC(=O)c1ccc2ccccc2c1)Cc1ccccc1 | 101
NC(=O)c1ccc(-c2nc(-c3ccc4c(c3)OCCO4)c(-c3ccccn3)[nH]2)cc1 | 101
N#CC(c1ccnc(NCCc2cccnc2)n1)c1nc2ccccc2s1 (stereo not drawn) | 94
Clc1ccc(Nc2nnc(Cc3ccncc3)c3ccccc23)cc1 | 90
CCN(CC)CCCCN1c2ccccc2Oc2ccc(Cl)cc21 | 94.1
O=C(O)/C=C/c1cc(Br)c(Br)c(Br)c1Br | 88.5
NC(=O)c1cccc(-c2cc(Nc3ccc(OC(F)(F)F)cc3)ncn2)c1 | 96.9
FC(F)(F)c1ccc(/C=C/c2nc(COc3ccc(CCCCn4ccnn4)cc3)co2)cc1 | 98
O=C1c2ccccc2-c2nc3nnnn3nc21 | 84.7
CCCCc1c(-c2ccc(O)cc2)[nH]c2nccnc12 | 66.9
O=Nc1c(-c2c(O)[nH]c3ccccc23)[nH]c2ccccc12 | 49.6
Nc1nc(Nc2ccc(S(N)(=O)=O)cc2)nn1C(=S)Nc1c(F)cccc1F | 12.9
O=C(c1ccccc1)c1ccc(N2CCOCC2)cc1O | 95.5
N#C/C(=C(/N)SC1C=CC=CC1)c1cccc(C(O)c2ccncc2)c1 (stereo not drawn) | 105
O=C1NC(=O)/C(=C/c2ccc3c(c2)OC(F)(F)O3)S1 | 102
C[C@@H](N)[C@H]1CC[C@H](C(=O)Nc2ccncc2)CC1 | 93.9

Series 2
Compound: CN1CCN(C(=O)c2ccc(NC(=O)Nc3ccc(N(C)c4ccnc(Nc5ccc(CS(C)(=O)=O)cc5)n4)cc3)cc2)CC1
Concentration: 1 µM
target | test | setting | scale | remaining binding
FER (Homo sapiens, UniProt P16591) | competitive binding panel | – | reference: vehicle | 46%
SIK1 (Homo sapiens, UniProt P57059) | competitive binding | SIK | – | 92%
ABL1 (Homo sapiens, UniProt P00519) | competitive binding, scanMAX | nonphosphorylated, 1000 nM | – | 9%
EPHA2 (Homo sapiens, UniProt P29317) | competitive binding panel | – | reference: vehicle | 85%
DYRK2 (Homo sapiens, UniProt Q92630) | competitive binding panel | – | reference: vehicle | 75%
ABL1 (Homo sapiens, UniProt P00519, Y253F) | competitive binding panel | – | reference: vehicle | 20%
MAP3K13 (Homo sapiens, UniProt O43283) | competitive binding | LZK | – | 70%
NEK10 (Homo sapiens, UniProt Q6ZWH5) | competitive binding panel | – | reference: vehicle | 94%
ABL1 (Homo sapiens, UniProt P00519, F317I) | competitive binding, scanMAX | – | – | 96% and 69%
MAP4K5 (Homo sapiens, UniProt Q9Y4K4) | competitive binding panel | – | reference: vehicle | 32%
IRAK1 (Homo sapiens, UniProt P51617) | competitive binding panel | – | reference: vehicle | 58%
STK39 (Homo sapiens, UniProt Q9UEW8) | competitive binding panel | – | reference: vehicle | 79%
AKT1 (Homo sapiens, UniProt P31749) | competitive binding panel | – | reference: vehicle | 100%
AAK1 (Homo sapiens, UniProt Q2M2I8) | competitive binding panel | – | reference: vehicle | 19%
MET (Homo sapiens, UniProt P08581) | competitive binding panel | – | reference: vehicle | 8.8%
TNNI3K (Homo sapiens, UniProt Q59H18) | competitive binding panel | – | reference: vehicle | 92%
PIM2 (Homo sapiens, UniProt Q9P1W9) | competitive binding panel | – | reference: vehicle | 100%
STK33 (Homo sapiens, UniProt Q9BYT3) | competitive binding panel | – | reference: vehicle | 92%
TAOK1 (Homo sapiens, UniProt Q7L7X3) | competitive binding panel | – | reference: vehicle | 71%

Series 3
Target: Sigma intracellular receptor 2 (TMEM97, Homo sapiens, UniProt Q5BJF2)
UniProt Q5BJF2, sequence (whole entry, looked up): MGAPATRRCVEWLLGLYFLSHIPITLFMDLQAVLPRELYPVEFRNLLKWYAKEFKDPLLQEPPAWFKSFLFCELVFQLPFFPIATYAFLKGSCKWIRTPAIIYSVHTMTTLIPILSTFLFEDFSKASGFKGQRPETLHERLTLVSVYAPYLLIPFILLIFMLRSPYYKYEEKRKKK
Effect on: ligand displacement
Concentration: 10 µM
SMILES | inhibition [%]
COc1cccc(NC(=O)c2nc3scc(CN(C)Cc4ccccc4)c3c(=O)[nH]2)c1 | -10.8
CC[C@H](CC(=O)O)n1c(=O)c2ncccc2n(Cc2cn(C)c3cc(C)cc(C)c23)c1=O | -9.5
Nc1nc(NCc2ccccc2)nc(-c2cccc(CO)c2)n1 | 12.3
CC1CCN(c2ccnc(NCc3cn(C)cn3)n2)CC1 | 33.6
CCC(=NO)C(C)=Cc1ccc(F)c(C)c1 | 33.4
CC(=O)Nc1ncc(CN2CCC[C@H](Cc3cc(C)nc(C)c3)C2)s1 | 19
O=S(=O)(NC1CCC(c2cc(F)ccc2F)(S(=O)(=O)c2ccc(Cl)cc2)CC1)C(F)(F)F (stereo not drawn) | 25.2
CN1CCN(C(=O)C(C)(C)c2ccc(C(=O)Nc3cn4cc(-c5cc(C(C)(C)C)cc(C(C)(C)C)c5)ccc4n3)cc2)CC1 | 97.9
NC(=O)c1ccc2nc(-c3ccc(C4(N)CCC4)cc3)c(-c3ccccc3)n2n1 | 39.9
CCC(F)(F)c1cc(N2CCC(S(C)(=O)=O)CC2)nc2sc(C(N)=O)c(N)c12 | 34.5
COc1cc(N[C@@H]2CCCC[C@]2(O)C(F)(F)F)ccc1F | 27.8
O=C(NCCCC1CCCCC1)c1ccc(CNC(=O)c2cnn(-c3ccccc3)c2C(F)(F)F)cc1 | 54.8
Cc1ccc(-c2cnc([C@@]3(O)CC[C@H](C(=O)O)C(C)(C)C3)s2)cc1Nc1cccc(C(F)(F)F)n1 | 27.4
O=C(NS(=O)(=O)c1ccc(NCC2CCOCC2)c([N+](=O)[O-])c1)c1ccc(N2CCN(Cc3ccc(C(F)(F)F)cc3-c3ccc(Cl)cc3)CC2)cc1Oc1cnc2[nH]ccc2c1 | 54.3
Cc1cc(Nc2nccc(C)n2)cc(-c2cnc([C@@]3(O)CC[C@H](C(=O)O)C(C)(C)C3)s2)c1 | 33.6
O=C1NC(c2ccccn2)Sc2ccccc21 (stereo not drawn) | -19
Cn1nc(C(=O)NCc2ccc(C(=O)O)cc2)cc1-c1ccc2[nH]ccc2c1 | -10.8
Cc1ncc(-c2cc(Cl)ccc2F)cc1-n1c(=O)n(CC(N)=O)c2ccccc21 | 41.6
CN([C@@H]1CCc2c(CC(=O)O)c3ccccc3n2C1)S(=O)(=O)c1ccc(F)cc1 | -9.73
CN(C)c1ncnc(-c2ccc3nc(Nc4cc(CN5CCN(C(=O)CC(F)(F)F)CC5)ccn4)[nH]c3c2)c1Cl | 68.1
c1ccc(C2CCN(c3cnc4c(N5CCOCC5)nccn34)CC2)cc1 | 31.6
N#CC1(c2ccccn2)CCN(Cc2cc(C(=O)N3CCCC3)c(=O)n3ccccc23)CC1 | 24.1
Cc1c(NC(=O)c2cc(C(N)=O)nc3cc(F)ccc23)c(C(F)(F)F)nn1Cc1ccc(C#N)cc1 | -10.3
C[C@@H]1CN(c2cc(-c3n[nH]c4ccc(OC5(C)CC5)cc34)ncn2)C[C@H](C)O1 | 50.4
CCOc1ccc(S(=O)(=O)Nc2ccc(Cl)cc2C#Cc2cnc(C(=O)O)cc2OC)c2ncccc12 | -20.9

Series 4
Cell line: A-375
Concentration: 100 µM
Time: 18 h
Compound | viability [%]
COC(=O)C1=C(C)NC(C)=C(C(=O)OCC(C)C)C1c1ccccc1[N+](=O)[O-] (stereo not drawn) | 18.1
Cc1cnc(NC(=O)C2=C(O)c3ccccc3S(=O)(=O)N2C)s1 | 79
Cc1ccc(-c2cc(C(F)(F)F)nn2-c2ccc(S(N)(=O)=O)cc2)cc1 | 8.05
Nc1ncnc2c1ncn2[C@@H]1O[C@H](COP(=O)(O)O)[C@@H](O)[C@H]1O | 98.1
COc1cc(OC)c(C(=O)CCCN2CCCC2)c(OC)c1 | 104
CC[C@@H]1/C=C(\C)C[C@H](C)C[C@H](OC)[C@H]2O[C@@](O)(C(=O)C(=O)N3CCCC[C@H]3C(=O)O[C@H](/C(C)=C/[C@@H]3CC[C@H](Cl)[C@H](OC)C3)[C@H](C)[C@@H](O)CC1=O)[C@H](C)C[C@@H]2OC | 92.6
CCC(CC)[C@H](NC(C)=O)[C@@H]1[C@H](O)[C@@H](C(=O)O)C[C@H]1NC(=N)N | 98.9
O=C(NC(Cc1cc(=O)[nH]c2ccccc12)C(=O)O)c1ccc(Cl)cc1 (stereo not drawn) | 107
CN1[C@@H]2CC[C@H]1C[C@@H](OC(=O)c1c[nH]c3ccccc13)C2 | 85.3
CCOc1cc([C@@H](CS(C)(=O)=O)N2C(=O)c3cccc(NC(C)=O)c3C2=O)ccc1OC | 107
CC(=O)NS(=O)(=O)c1ccc(NC(=O)c2ccccc2C(=O)O)cc1 | 83.6
Cc1cccc(Nc2ccccc2C(=O)O)c1C | 92.1
CN(C)CCOC(C)(c1ccccc1)c1ccccn1 (stereo not drawn) | 43.7
Cn1cnc([N+](=O)[O-])c1Sc1ncnc2nc[nH]c12 | 77.7
CC(=O)OC(C)C[N+](C)(C)C (stereo not drawn) | 110
CC(=O)c1ccc(O)c(C(=O)O)c1 | 108
CC1=NN(c2ccc(C)c(C)c2)C(=O)/C1=N\Nc1cccc(-c2cccc(C(=O)O)c2)c1O | 47.8
C[n+]1cc2c3c(ccc2c2ccc4cc5c(cc4c21)OCO5)OCO3 | 9.47
CC(CN(C)C)CN1c2ccccc2CCc2ccccc21 (stereo not drawn) | 103
C=C1CC[C@H](O)C/C1=C/C=C1\CCC[C@]2(C)[C@@H]([C@H](C)/C=C/[C@H](C)C(C)C)CC[C@@H]12 | 19.5
O=C(NCCO[N+](=O)[O-])c1cccnc1 | 93.9
Cc1ccc(C(=O)c2cc(O)c(O)c([N+](=O)[O-])c2)cc1 | 105

For quick reference, copied from above (series 4):
Compound | viability [%]
Cc1cccc(Nc2ccccc2C(=O)O)c1C | 92.1
CN(C)CCOC(C)(c1ccccc1)c1ccccn1 (stereo not drawn) | 43.7
Cn1cnc([N+](=O)[O-])c1Sc1ncnc2nc[nH]c12 | 77.7
CC(=O)OC(C)C[N+](C)(C)C (stereo not drawn) | 110
CC(=O)c1ccc(O)c(C(=O)O)c1 | 108
CC1=NN(c2ccc(C)c(C)c2)C(=O)/C1=N\Nc1cccc(-c2cccc(C(=O)O)c2)c1O | 47.8
C[n+]1cc2c3c(ccc2c2ccc4cc5c(cc4c21)OCO5)OCO3 | 9.47
CC(CN(C)C)CN1c2ccccc2CCc2ccccc21 (stereo not drawn) | 103
C=C1CC[C@H](O)C/C1=C/C=C1\CCC[C@]2(C)[C@@H]([C@H](C)/C=C/[C@H](C)C(C)C)CC[C@@H]12 | 19.5
O=C(NCCO[N+](=O)[O-])c1cccnc1 | 93.9
Cc1ccc(C(=O)c2cc(O)c(O)c([N+](=O)[O-])c2)cc1 | 105
